Results gathered from unrelated publications.
Protocols differ between the studies behind these lines. ± marks the error that the study gave.
Sequence of UniProt Q04759 (whole entry, looked up): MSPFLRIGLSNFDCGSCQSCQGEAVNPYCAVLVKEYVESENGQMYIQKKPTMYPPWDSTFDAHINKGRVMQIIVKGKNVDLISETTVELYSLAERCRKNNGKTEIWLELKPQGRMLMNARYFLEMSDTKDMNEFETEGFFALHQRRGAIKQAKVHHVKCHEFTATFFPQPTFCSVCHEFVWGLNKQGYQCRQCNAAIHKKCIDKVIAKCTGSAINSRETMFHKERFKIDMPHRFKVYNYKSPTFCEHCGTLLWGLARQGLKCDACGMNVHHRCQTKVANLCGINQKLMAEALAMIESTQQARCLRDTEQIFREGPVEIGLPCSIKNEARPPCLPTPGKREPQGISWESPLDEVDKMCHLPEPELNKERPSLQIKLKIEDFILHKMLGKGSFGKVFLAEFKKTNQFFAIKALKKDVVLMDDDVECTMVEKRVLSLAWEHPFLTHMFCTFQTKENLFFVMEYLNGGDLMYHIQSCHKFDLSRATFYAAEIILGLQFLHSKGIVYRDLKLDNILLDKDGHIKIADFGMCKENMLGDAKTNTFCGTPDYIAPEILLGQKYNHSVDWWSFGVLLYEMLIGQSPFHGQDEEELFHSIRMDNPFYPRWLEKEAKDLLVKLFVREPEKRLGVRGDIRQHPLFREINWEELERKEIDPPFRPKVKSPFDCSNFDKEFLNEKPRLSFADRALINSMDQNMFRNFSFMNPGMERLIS
Sequence of UniProt Q9UBE8 (whole entry, looked up): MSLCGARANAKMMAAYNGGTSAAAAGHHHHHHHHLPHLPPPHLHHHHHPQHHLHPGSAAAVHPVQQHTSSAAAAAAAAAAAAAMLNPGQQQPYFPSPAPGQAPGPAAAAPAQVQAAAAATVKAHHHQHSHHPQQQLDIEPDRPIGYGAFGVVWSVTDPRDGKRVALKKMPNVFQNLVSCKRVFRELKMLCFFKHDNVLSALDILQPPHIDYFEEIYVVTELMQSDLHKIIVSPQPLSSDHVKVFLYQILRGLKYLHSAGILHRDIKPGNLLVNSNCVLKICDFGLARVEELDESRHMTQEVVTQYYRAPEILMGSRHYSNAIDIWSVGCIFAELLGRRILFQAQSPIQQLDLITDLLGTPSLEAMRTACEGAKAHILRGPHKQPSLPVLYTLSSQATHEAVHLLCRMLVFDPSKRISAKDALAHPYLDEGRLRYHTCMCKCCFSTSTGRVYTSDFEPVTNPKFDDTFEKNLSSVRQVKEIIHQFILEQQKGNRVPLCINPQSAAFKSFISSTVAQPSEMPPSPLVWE
Sequence of UniProt Q9NZD1 (whole entry, looked up): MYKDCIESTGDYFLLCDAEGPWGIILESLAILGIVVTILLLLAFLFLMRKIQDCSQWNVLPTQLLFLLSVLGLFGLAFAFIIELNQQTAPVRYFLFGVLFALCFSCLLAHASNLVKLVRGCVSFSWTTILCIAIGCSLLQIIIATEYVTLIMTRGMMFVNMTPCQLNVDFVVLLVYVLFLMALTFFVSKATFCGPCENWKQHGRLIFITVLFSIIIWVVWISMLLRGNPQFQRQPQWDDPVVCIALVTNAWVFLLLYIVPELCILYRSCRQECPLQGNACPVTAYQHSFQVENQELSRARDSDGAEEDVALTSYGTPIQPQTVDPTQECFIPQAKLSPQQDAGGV
Sequence of UniProt O94804 (whole entry, looked up): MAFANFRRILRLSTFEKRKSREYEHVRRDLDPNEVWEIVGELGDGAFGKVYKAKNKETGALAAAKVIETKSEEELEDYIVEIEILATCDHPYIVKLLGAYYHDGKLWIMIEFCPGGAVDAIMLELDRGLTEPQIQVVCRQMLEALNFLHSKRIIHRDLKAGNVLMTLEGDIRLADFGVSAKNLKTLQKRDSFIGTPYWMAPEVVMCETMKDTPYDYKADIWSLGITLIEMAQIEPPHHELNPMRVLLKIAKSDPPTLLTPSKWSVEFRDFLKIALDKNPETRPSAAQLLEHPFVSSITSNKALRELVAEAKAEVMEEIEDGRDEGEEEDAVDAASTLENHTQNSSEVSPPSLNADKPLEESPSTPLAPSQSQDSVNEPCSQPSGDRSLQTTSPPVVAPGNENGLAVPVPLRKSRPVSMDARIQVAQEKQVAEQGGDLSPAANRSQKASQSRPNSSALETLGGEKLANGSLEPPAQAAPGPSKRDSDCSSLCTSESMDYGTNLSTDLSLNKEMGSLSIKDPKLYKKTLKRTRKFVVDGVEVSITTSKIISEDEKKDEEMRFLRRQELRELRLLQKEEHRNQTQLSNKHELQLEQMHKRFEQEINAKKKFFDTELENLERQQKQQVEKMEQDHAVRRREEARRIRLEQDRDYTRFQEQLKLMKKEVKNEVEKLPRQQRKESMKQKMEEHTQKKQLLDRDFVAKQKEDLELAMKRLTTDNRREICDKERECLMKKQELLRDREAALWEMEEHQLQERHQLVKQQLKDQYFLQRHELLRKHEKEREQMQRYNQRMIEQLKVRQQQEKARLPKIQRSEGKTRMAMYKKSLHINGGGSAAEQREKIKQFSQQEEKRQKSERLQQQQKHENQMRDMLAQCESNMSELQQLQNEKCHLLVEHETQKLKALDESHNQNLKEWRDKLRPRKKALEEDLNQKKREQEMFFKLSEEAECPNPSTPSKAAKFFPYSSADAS
Sequence of UniProt Q14654 (whole entry, looked up): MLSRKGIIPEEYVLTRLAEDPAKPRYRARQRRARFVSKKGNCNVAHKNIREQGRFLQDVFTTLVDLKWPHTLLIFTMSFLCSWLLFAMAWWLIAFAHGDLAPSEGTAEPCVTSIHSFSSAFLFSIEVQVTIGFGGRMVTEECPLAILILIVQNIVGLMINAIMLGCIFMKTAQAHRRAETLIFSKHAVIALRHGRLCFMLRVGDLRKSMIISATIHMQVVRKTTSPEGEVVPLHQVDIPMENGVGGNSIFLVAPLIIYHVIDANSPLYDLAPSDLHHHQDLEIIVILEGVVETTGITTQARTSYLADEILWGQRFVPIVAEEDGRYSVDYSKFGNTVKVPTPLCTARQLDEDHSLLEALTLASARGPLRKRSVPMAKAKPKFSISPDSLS
Sequence of UniProt Q5VWZ2 (whole entry, looked up): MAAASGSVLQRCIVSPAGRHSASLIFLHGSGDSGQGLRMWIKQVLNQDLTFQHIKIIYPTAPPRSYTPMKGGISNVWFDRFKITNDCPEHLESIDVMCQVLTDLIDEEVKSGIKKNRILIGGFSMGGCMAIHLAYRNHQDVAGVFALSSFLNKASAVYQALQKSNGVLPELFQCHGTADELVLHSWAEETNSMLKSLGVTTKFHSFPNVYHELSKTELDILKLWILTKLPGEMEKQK

| Structure (SMILES) | target or system | assay | system | setting | scale | endpoint | result |
| --- | --- | --- | --- | --- | --- | --- | --- |
| COc1ccccc1-c1cccc(CN2CCCC(C(=O)NCCc3ccc(F)cc3)C2)c1 (centres unmarked) | Vero-E6 | CellTiter-Glo ATP |  | 72 h, first round 5-point | relative to: DMSO 0%, hyamine -100%, more negative, more toxic | maximum response | -14.4% |
| C[C@H]1CN(c2n[nH]c3nc(N[C@H]4CC[C@H](NS(=O)(=O)CCC(F)(F)F)CC4)ncc23)CCO1 | NLK (Homo sapiens, UniProt Q9UBE8) | Kinobeads competition | HEK293, K562, placenta lysate | 0.16 µM, unit not given | relative to: vehicle | remaining binding | 0.75 |
| O=C(c1ccc(Cl)cc1)N1CCN2C(=O)N(OC(=O)N3CCOc4ccccc43)C(=O)C2C1 (centres unmarked) | LYPLAL1 (Homo sapiens, UniProt Q5VWZ2) | enzyme activity, inhibitor, MS-based ABPP | SW-620 conditioned medium | 10 µM, 1 h, 37 °C | relative to: compound over DMSO, lower = stronger inhibition | median ratio | 1.17 |
| Nc1ncnc2c1ncn2[C@@H]1O[C@H](COP(=O)(O)OP(=O)(O)OP(=O)(O)O)[C@@H](O)[C@H]1O | ATP-sensitive inward rectifier potassium channel 11 (Homo sapiens, UniProt Q14654) | single-channel patch clamp |  | concentration not given, reactivation after rundown |  | short open time constant | 1 ± 0.3 ms |
| CN[C@@]1(c2ccccc2Cl)CCCCC1=O | muscle nicotinic acetylcholine receptor | radioligand binding, antagonist, radioligand displacement |  | 30 µM |  | inhibition | -14% |
| COc1cc2c(cc1OCC1CC1)NC(=O)C21CCN(c2cc(NC3CC3)ncn2)CC1 | Vero-E6 | CellTiter-Glo ATP |  | 72 h, first round 5-point | relative to: DMSO 0%, hyamine -100%, more negative, more toxic | maximum response | 0.236% |
| [2H]c1c([2H])c([C@]2([2H])CCCN2C(=O)C(C)(C)Oc2ccc3cn[nH]c3c2)c([2H])c([2H])c1C([2H])([2H])[2H] | STK10 (Homo sapiens, UniProt O94804) | KINOMEscan |  | 1 µM | relative to: DMSO control | remaining binding | 76% |
| OC[C@H]1O[C@@H](n2ccc3c(SCc4ccc(Cl)cc4Cl)ncnc32)[C@H](O)[C@@H]1O | Toxoplasma gondii | [3H]uracil incorporation | human fibroblasts, adenosine kinase deficient | 5 µM |  | survival | 100% |
| Oc1ccc2c3c1O[C@H]1[C@@H](O)CC[C@@]4(O)[C@@H](C2)N(CC2CCC2)CC[C@]314 | G-protein coupled receptor family C group 5 member D (GPRC5D, Homo sapiens, UniProt Q9NZD1) | β-arrestin recruitment, TANGO luminescence, measured: GPRC5D |  | concentration not given | relative to: basal luminescence | log2 fold change | 0.484 |
| Cc1ccc(CSc2ncnc3c2ccn3[C@@H]2O[C@H](CO)[C@@H](O)[C@H]2O)cc1 | Toxoplasma gondii | [3H]uracil incorporation | human fibroblasts, adenosine kinase deficient | 5 µM |  | survival | 100% |
| COc1ccc(N2C(=O)N(c3c(C)cccc3Cl)Cc3cnc(Nc4ccc(C5CCN(C)CC5)cc4OC)nc32)nc1 | PRKCQ (Homo sapiens, UniProt Q04759) | kinase activity, inhibitor |  | 0.5 µM, kinase PKC-THETA |  | inhibition | 5.46% |

Excerpt of the above:
| Structure (SMILES) | target or system | assay | system | setting | scale | endpoint | result |
| --- | --- | --- | --- | --- | --- | --- | --- |
| CN[C@@]1(c2ccccc2Cl)CCCCC1=O | muscle nicotinic acetylcholine receptor | radioligand binding, antagonist, radioligand displacement |  | 30 µM |  | inhibition | -14% |
